# Published values pooled from the literature.
# Numbered parts are unrelated; each lists some results of a single study.

# Study 1 — method: protein binding microarray; molecule type: double-stranded DNA, one strand shown; medium: in vitro; tested at: not given; baseline: not given; direction: higher = stronger binding
# Target: Histone acetyltransferase KAT6A, winged helix 1, GST fusion (KAT6A, Homo sapiens, UniProt Q92794, residues 1-85)
# Notes: 8-mer, flanks averaged, mean of 2 arrays, mostly near background
# Construct (chain): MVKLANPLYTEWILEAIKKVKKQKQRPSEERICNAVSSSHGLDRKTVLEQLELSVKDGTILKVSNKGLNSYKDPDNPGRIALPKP
Sequence,E-score
GGCCCCAA,0.051
GCGGGTAA,0.324
ACGGCTTC,0.38
GGCTGCGA,-0.037
ATAGCTAG,-0.11
CAAGCCCG,0.182
ATACGCAG,0.00609
CGGCAATA,0.243
TACTGACA,-0.147
GATATGCA,-0.0715
CACGACGA,-0.0909
GTAAATAC,0.0791
CGGGTTCC,0.342
AAAGTTCT,-0.082
AGCCCCTG,-0.0728
ACAATAAG,-0.148
AGGAATAC,-0.195
ATACGCAA,0.106

# Study 2 — method: RNA Bind-n-Seq; molecule type: RNA; medium: in vitro; tested at: 200 nM; notes: whole 134-nt RNA, ends assumed; added: 150 mM KCl; baseline: input library; direction: higher = stronger binding
# Target: Ras GTPase-activating protein-binding protein 1, full length (G3BP1, Homo sapiens, UniProt Q13283)
# UniProt Q13283, sequence (whole entry, looked up): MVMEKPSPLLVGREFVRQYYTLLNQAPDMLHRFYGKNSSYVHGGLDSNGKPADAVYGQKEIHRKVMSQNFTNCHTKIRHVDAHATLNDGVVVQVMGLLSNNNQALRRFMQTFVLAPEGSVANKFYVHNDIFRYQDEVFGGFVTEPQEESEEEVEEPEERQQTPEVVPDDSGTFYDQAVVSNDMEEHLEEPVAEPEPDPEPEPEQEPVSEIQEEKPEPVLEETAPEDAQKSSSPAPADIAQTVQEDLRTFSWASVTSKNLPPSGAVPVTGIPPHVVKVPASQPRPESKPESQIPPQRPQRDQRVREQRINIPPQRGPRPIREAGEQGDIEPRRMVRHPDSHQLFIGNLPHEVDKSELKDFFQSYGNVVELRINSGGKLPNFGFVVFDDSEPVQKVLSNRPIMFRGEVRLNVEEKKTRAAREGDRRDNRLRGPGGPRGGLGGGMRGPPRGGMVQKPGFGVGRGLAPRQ
# Shared flanks, not repeated: GGGAGUUCUACAGUCCGACGAUC … UGGAAUUCUCGGGUGUCAAGG
Sequence,log2 enrichment
CCUCAAGUCCUGUGCUACACAUCGUAUGUACCGAAUCGGUUGGUUGGGUUGGGAAAGUAUUAUGUUACGCCGUUCGGAUCUGCACUUCCA,-0.317
UCCUGUGCUACACAUCGUAUGUACCGAAUCGGGAAAAAGGGUUUUUUUGGGAAAAAGGGAAAGUAUUAUGUUACGCCGUUCGGAUCUGCA,-0.628
GCAGGAAGUAAAAACAAAUGGAAAUGCUUCAAAUAGUGGCAGGGGUGGGGGUUGCUAAGGAAAGGGUGGGAUGGGAGUGGGUAAAGAGUU,1.18
CUCAAGUCCUGUGCUACACAUCGUAUGUACCGAAUCGGUUGGGGUUGGUUGGGGAAAGUAUUAUGUUACGCCGUUCGGAUCUGCACUUCC,0.786
UAUCUUAUCUACACAUGGGGGACUGAAGAGUUCGAGAGAUCCAAGAGGAAGAAUCCAGCUGCCUAUGAAAAUGACAAAUGAGCAACGCAU,-0.272
ACCAUGCAGGUGGGCAUCUUUGGGAAGUGGGGCAAGGGGGGGAUAGGGAGGGAAAUAACACUUUGGGAACAGGUGGUCCCAGGUCGUUUC,0.95
UUCCUCAAGUCCUGUGCUACACAUCGUAUGUACCGAAUCGGCGGCGGGCGGAAAGUAUUAUGUUACGCCGUUCGGAUCUGCACUUCCAGC,-0.32
UCCUGUGCUACACAUCGUAUGUACCGAAUCGGGGUUUUUGGGGAGGGGUUUUUUUGGGGAAAGUAUUAUGUUACGCCGUUCGGAUCUGCA,0.604
GUAGCUGCUCCAGUGGGCCCAGUGGGCCCCACUCCUACAGUUUUGCCCAUGGGAGCCCCUGUUCCCCGGCCUCGUGGUCCCCCACCGCCC,-0.0103
UCAAGUCCUGUGCUACACAUCGUAUGUACCGAAUCGGUUUGGUUUGGAAAAAGGAAAGUAUUAUGUUACGCCGUUCGGAUCUGCACUUCC,-0.796

# Study 3 — method: RNA Bind-n-Seq; molecule type: RNA; medium: in vitro; tested at: not given; baseline: input RNA pool; direction: higher = stronger binding
# Target: RING finger protein unkempt homolog, zinc fingers 1-6, GST-SBP tag (UNK, Homo sapiens, UniProt Q9C0B0, residues 30-357)
# Notes: RNA with constant flanks, human and mouse sites, ends assumed
# Shared flanks, not repeated: GGGAGUUCUACAGUCCGACGAUC … CAACAGAGGAUUGAGCAUCA
# Residues (chain): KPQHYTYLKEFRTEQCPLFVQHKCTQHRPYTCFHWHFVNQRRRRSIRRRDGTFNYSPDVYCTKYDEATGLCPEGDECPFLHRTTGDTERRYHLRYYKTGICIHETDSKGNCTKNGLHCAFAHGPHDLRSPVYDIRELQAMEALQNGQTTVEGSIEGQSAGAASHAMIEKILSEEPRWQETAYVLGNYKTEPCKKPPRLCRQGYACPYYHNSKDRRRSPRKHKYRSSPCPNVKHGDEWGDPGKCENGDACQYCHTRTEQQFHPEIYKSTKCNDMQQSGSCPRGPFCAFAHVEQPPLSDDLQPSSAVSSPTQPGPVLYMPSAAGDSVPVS
Sequence,bound/input enrichment
AGAACUGACUCUCUUCCGUGGAAGAGAUGAACUGAGGAGAACCACCUCUUUUUUAUAGAUGACUUUAUUUCUAAAUUAUGACCAAAAGAUAUUUUGCUAUUUCUUUCUUUAUAUAUGGAC,3.97 ratio
AGUGAUGAUGUCAUCGAGUUGACGCCAUCAAAUUUCAACAGAGAAGUUAUUCAGAGUGACGGCCUGUGGCUUGUAGAAUUUUAUGCACCAUGGUGUGGUCACUGCCAGAGGUUAACACCA,0.118 ratio
UGGGGCUCAUCUAAACUAGUUCCAGUGGGAUACGGAAUUAAGAAACUUCAAAUACAGUGUGUAGUUGAAGAUGAUAAAGUUGGAACAGAUAUGCUGGAGGAGCAGAUCACUGCUUUUGAG,0.189 ratio
AUGAAAAGACUAAUUGGAUGAAGACUCUCUCUCUGUAAUGAGUUUGUUGUUAAAUAUACAGUAGUUAUGGAAUGAAAAUGAAUACUUUGUCCCAGGCUCCUGGAUACGUUGCAUUUGGCU,0.0573 ratio
UUUGGACAUCGGUUACAGGAAAACUUUUCCUUAGAUCUUCUCAAAACUGCAUUUGUUAAUAGCUGCUAUAUUAAAAGUGAGGAGGCCAAACGCCAACAACUUGGGAUAGAGAAAGAAGCU,1.15 ratio
GAAUAUUUGUGUUGUAUGCUUGUUCCAACCACCGCUUGUGUGAGCAUUUUUGUGGCUUGUACAGAAAGUACACUUUUAAAUUGUCUCUUGCAUCACUAAAAUUUUUUUAAAAUGAGCAUA,0.649 ratio
UUUCUCGGGAUUAUUGCUCUUCUGUCUAUAAAUUUUGAAUGAUACUGUGCCUUAAUUGGUUUUCAUAGUUUAAGUGUGUAUCAUUAUCAAAGUUGAUUAAUUUGGCUUCAUAGUAUAAUG,1.85 ratio
GAACAACAAAAAGAAAACAUGGAGAAUCUUAAAAGUCUAAAAAUUGAAGCAGAAAAUAAGUAUGAUACAAUUAAAUUGAAGAUUAAUCAGCUAUCAGAGCUAGCGGAUCCACUUAAGGAU,0.529 ratio
ACUCUGUGGGCCACAUCCCCCAGGGUUCUGACACUUCUGCAGUGUGACCAGUGGUGAUGCUAGGUUAUAAUUUCAAACUGUGAAAAAUAAUGGUCUCGUCCUUUACUCAGUGUGGGGUUA,0.295 ratio
UGUUUUGCACGUAUGGUUGGAUGUACUGGAAAAGUCAUAGGAAUUGAUCACAUUAAAGAGCUAGUAGAUGACUCAGUAAAUAAUGUCAGGAAGGACGAUCCAACACUUCUGUCUUCAGGG,4.13 ratio
GUUGCCAGCAGCACUGCUGAAAAGAAUGCAUUUAUUUCAUGCAUUUGGAAAUUGAAUCAGCGAUAUCUCCGGAAGAAAAUUGAUUUUGUCAAUGUUAGCUCACAGCUUUUGGAAGAAUCU,0.183 ratio

# Study 4 — method: aptamer microarray, sandwich; molecule type: DNA with 2'F-ANA; medium: in vitro; tested at: 200 nM; added: Cy3 exosite-II aptamer, 400 nM; direction: higher = stronger binding; sequence: GGTTGGTGTGGTTGG
# Target: Prothrombin, mature alpha-thrombin (F2, Homo sapiens, UniProt P00734)
# Notes: whole 15-mer aptamer, many near background
Modification,mean fluorescence intensity
2'F-ANA at 1 2 4 8 9,127 a.u.
2'F-ANA at 2 3 4 5 6 9 10,57.1 a.u.
2'F-ANA at 1 2 4 5 10 13,44 a.u.
2'F-ANA at 2 3 4 6 8 9 12 13 14,214 a.u.
2'F-ANA at 1 2 3 4 5 7 10 12 15,50.4 a.u.
2'F-ANA at 2 3 4 5 6 8 10 12,84.7 a.u.
2'F-ANA at 3 4 6 7 9 10 11,225 a.u.
2'F-ANA at 4 7 8 9 10 12 14 15,72 a.u.
2'F-ANA at 1 2 3 7 8 14 15,123 a.u.
2'F-ANA at 1 4 5 8 10 11 12 13 14 15,44.2 a.u.
2'F-ANA at 1 4 7 12,338 a.u.
2'F-ANA at 1 3 6 9 10 11 12 13 15,93.1 a.u.
2'F-ANA at 2 5 6 7 8 9 15,78.6 a.u.
2'F-ANA at 2 4 6 7 8 9 10 12 14 15,63.3 a.u.
2'F-ANA at 1 2 3 6 8 9 10 11 12 14,51.8 a.u.
2'F-ANA at 1 4 6 8 9 12 14 15,59.3 a.u.
2'F-ANA at 2 4 5 6 7 8 10 11 12 13,49.2 a.u.
2'F-ANA at 1 3 4 5 6 10 11 12 13,56.2 a.u.
2'F-ANA at 2 3 4 5 7 8 10 11 13 14 15,49.9 a.u.
2'F-ANA at 4 5 8 10 11 12 13 14 15,62.7 a.u.

# For quick reference, copied from above (study 2):
Sequence,log2 enrichment
GCAGGAAGUAAAAACAAAUGGAAAUGCUUCAAAUAGUGGCAGGGGUGGGGGUUGCUAAGGAAAGGGUGGGAUGGGAGUGGGUAAAGAGUU,1.18
UCCUGUGCUACACAUCGUAUGUACCGAAUCGGGGUUUUUGGGGAGGGGUUUUUUUGGGGAAAGUAUUAUGUUACGCCGUUCGGAUCUGCA,0.604
CUCAAGUCCUGUGCUACACAUCGUAUGUACCGAAUCGGUUGGGGUUGGUUGGGGAAAGUAUUAUGUUACGCCGUUCGGAUCUGCACUUCC,0.786
GUAGCUGCUCCAGUGGGCCCAGUGGGCCCCACUCCUACAGUUUUGCCCAUGGGAGCCCCUGUUCCCCGGCCUCGUGGUCCCCCACCGCCC,-0.0103
UUCCUCAAGUCCUGUGCUACACAUCGUAUGUACCGAAUCGGCGGCGGGCGGAAAGUAUUAUGUUACGCCGUUCGGAUCUGCACUUCCAGC,-0.32
ACCAUGCAGGUGGGCAUCUUUGGGAAGUGGGGCAAGGGGGGGAUAGGGAGGGAAAUAACACUUUGGGAACAGGUGGUCCCAGGUCGUUUC,0.95
CCUCAAGUCCUGUGCUACACAUCGUAUGUACCGAAUCGGUUGGUUGGGUUGGGAAAGUAUUAUGUUACGCCGUUCGGAUCUGCACUUCCA,-0.317
